Experimental data gathered from unrelated publications.
Each line is one published result; not all experiments were run side by side. ± marks the error that the study gave.

SMILES	cell line	effect on	mode	technique	time	notes	IC50
C=C1CCC(O)C(C)=CCC2C1CC2(C)C(=O)C=CC(C)(C)O (centres unmarked)	KPC	cell viability		CCK-8	72 h		17.9 ± 0.87 µM
COc1cccc(-c2ccc(Nc3ccc(CN(C)C)cc3)c(OC)c2F)c1	A-375 (BRAF V600E)	ERK phosphorylation		HTRF			74.7 µM
CN1CCN(C(=O)N(CCCCCCC(=O)NO)c2ccc(-c3ccc4cnn(C)c4c3)cc2)CC1	HH	cell growth or viability		ATP luminescence	72 h		0.0329 µM
C=C(C)[C@@H]1CC[C@]2(C(=O)O)CC[C@]3(C)[C@H](CC[C@@H]4[C@@]5(C)CC[C@H](O[C@@H]6O[C@@H](C)[C@H](OC)[C@@H](O)[C@H]6O)C(C)(C)[C@@H]5CC[C@]43C)[C@@H]12	human Skin fibroblast	cell growth or viability			48 h		21 µM
N#Cc1cccc(-c2ccc(=O)n(Cc3cccc(-c4ncc(OCC5CCN(CC(=O)N6CCN(c7ccc8c(c7)C(=O)N(C7CCC(=O)NC7=O)C8=O)CC6)CC5)cn4)c3)n2)c1 (centres unmarked)	Hs746T	cell growth or viability		CCK-8	72 h		0.0035 µM
CC/C(=C(\c1ccc(O)cc1)c1ccc(OCCN(C)CCOCCOCCN(C)CCOc2ccc(/C(=C(/CC)c3ccccc3)c3ccc(O)cc3)cc2)cc1)c1ccccc1	MDA-MB-231 (ER-negative)	cell growth			96 h		1.84 µM
CCC1=C(CC)C2=[N+]3C1=Cc1c(CC)c(CC)c4[n]1[Ir-3]31([C]#[N+]c3ccc(OC)cc3)([C]#[N+]c3ccc(OC)cc3)[n]3c(c(CC)c(CC)c3=CC3=[N+]1C(=C4)C(CC)=C3CC)=C2.F[B-](F)(F)F	HCC827	cell growth or viability		MTT	72 h		50 µM
COc1cc2c(cc1C(C)(C)O)CCC1C(C)(C)c3nc(C)ncc3C[C@]21C (mixture of isomers)	NCM460	cell growth or viability		SRB	24 h		> 200 µM
CC(=O)[O][Pt]([Cl])([Cl])[O]C(=O)CCCc1ccccc1.N.N	seven cancer cell lines	cytotoxicity				mean over panel	6.42 µM
C=CCSc1nc(N)c2c(F)c(C#N)c(F)c(Cl)c2n1	SGC-7901	cell growth or viability		MTT	96 h		6.34 µM
CC(=O)Oc1ccccc1C(=O)[O][Pt]([NH2])([NH2])([Cl])([Cl])[O]C(=O)C(Cl)Cl	six human cancer lines	cytotoxicity		MTT			0.7 µM
CC12CCCC(n3cc(C(=O)N4CCC(N)CC4)nn3)(C1)C1CC(C)(C)C1CC2 (centres unmarked)	NCM460	cell growth or viability		CCK-8	72 h		15.4 µM
OCCNc1ccc(-c2nc3cc(OCCF)ccc3n3cccc23)cc1	HEK293 DR-GFP reporter	homologous recombination	inhibitor		48 h		15.8 ± 8.5 µM
CN1CCCNC(=O)CC2(CCCCC2)CC(=O)NCCCN(C)CCCNc2cccc3c2C(=O)c2cccc(c2C3=O)NCCC1	ASF-4-4L2	cell proliferation		CCK-8	48 h		> 20 µM
Cc1cc(C)c(-n2c3c([n+](-c4c(C)cc(C)cc4C)[c]2[Au-][Cl])-c2cccc4cccc-3c24)c(C)c1	CHO	cell growth or viability		MTT	72 h		28 µM
COc1cc2c(cc1OC)-c1nc(NN=C(Cc3ccccc3[N+](=O)[O-])C(=O)O)sc1CO2 (mixture of isomers)	CRL-2351	cell growth		sulforhodamine B	5 days		> 20 µM
Cc1cn([C@@H]2O[C@H](CO)[C@@H](O)[C@H](F)[C@H]2O)c(=O)[nH]c1=O	FM3A	cell growth or viability					> 200 µM
N#Cc1cccc(-c2ccc(=O)n(Cc3cccc(-c4ncc(OCC5CCN(CC(=O)NCCOCCNc6cccc7c6C(=O)N(C6CCC(=O)NC6=O)C7=O)CC5)cn4)c3)n2)c1 (centres unmarked)	Hs746T	cell growth or viability		CCK-8	72 h		0.0247 µM
CO[C@H]1O[C@H](COC(c2ccccc2)(c2ccccc2)c2ccccc2)[C@@H](OS(=O)(=O)c2ccccc2)[C@H](OS(=O)(=O)c2ccccc2)[C@H]1OS(=O)(=O)c1ccccc1	Ehrlich	cell growth or viability		MTT			2600 µg/mL
CCCC(CCC)C(=O)[O][Pt]1([OH])[O]C(=O)C(=O)[O]1.NC1CCCCC1N	seven cancer cell lines	cytotoxicity				mean over panel	40.7 µM
N#Cc1c(F)c(F)c2nc(SCc3ccc4ccccc4c3)nc(N)c2c1F	SGC-7901	cell growth or viability		MTT	96 h		5.89 µM

SMILES	cell line	effect on	mode	technique	time	notes	IC50
Cc1cc(C#N)cc(C)c1Oc1cc(Nc2ccc(C#N)cc2)nc2cnccc12	H69AR (multidrug resistant)				48 h		> 128 µM
CC1=C(C(=O)c2ccc([N+](=O)[O-])cc2)C(=O)c2ccccc2C1=O	MRC-5	cytotoxicity					24 µM
N#Cc1cccc(-c2ccc(=O)n(Cc3cccc(-c4ncc(OCC5CCN(CCCCCCC(=O)Nc6cccc7c6C(=O)N(C6CCC(=O)NC6=O)C7=O)CC5)cn4)c3)n2)c1 (centres unmarked)	Hs746T	cell growth or viability		CCK-8	72 h		0.0968 µM
Cc1ccc(-n2cc(CSc3nc4ccccc4n3Cc3cn(-c4ccc(C)cc4)nn3)nn2)cc1	Caco-2	cell growth or viability		MTT			43.9 µg/mL
N[C@@H](CCC(=O)N[C@@H](CS[Se]Cc1ccc(-c2cc(C(F)(F)F)nn2-c2ccc(S(N)(=O)=O)cc2)cc1)C(=O)NCC(=O)O)C(=O)O	FF2441 human fibroblasts	cell viability		MTS	72 h		36.3 ± 5.6 µM
COc1cc(/C=C/C(=O)/C=C(O)/C=C/c2ccc(OCC(=O)N3CCOCCOCCOCCOCC3)c(OC)c2)ccc1OCC(=O)N1CCOCCOCCOCCOCC1	SK-LU-1	cell growth or viability		SRB			9.3 µM
O=C(O)/C(Cc1ccccc1[N+](=O)[O-])=N\Nc1nc2c(s1)CS(=O)(=O)c1cc(Cl)c(Cl)cc1-2	CRL-2351	cell growth		sulforhodamine B	5 days		> 20 µM
[Cl][Au-][c]1n(-c2c(C(c3ccccc3)c3ccccc3)cc(C(c3ccccc3)c3ccccc3)cc2C(c2ccccc2)c2ccccc2)c2c([n+]1-c1c(C(c3ccccc3)c3ccccc3)cc(C(c3ccccc3)c3ccccc3)cc1C(c1ccccc1)c1ccccc1)-c1cccc3cccc-2c13	CHO	cell growth or viability		MTT	72 h		> 50 µM
CCN(CC)CCN1C(=O)c2ccc3c4cccc5c(N6CCNCC6)ccc(c6ccc(c2c36)C1=O)c54	A549, PC-3, HL-60	cytotoxicity		SRB	72 h	range over three lines	3.1 to 7.4 µM
N#Cc1c(-c2cccs2)cc(-c2cccc3ccccc23)n2c(Cc3ccccc3)nnc12	U-937	cell growth or viability		MTT	72 h		1.99 µM
C[N+]1(C)CC[NH2+][Pt-2]1([OH])([OH])([Cl])[Cl]	SW1573	cell growth or viability			96 h		130 µM
N=C(N)Nc1nc2ccccc2[nH]1	BPH-1	cell growth or viability		MTT	24 h		> 500 µM
CN1CCN(C(=O)c2cn(C34CCCC(C)(CCC5C3CC5(C)C)C4)nn2)CC1 (centres unmarked)	NCM460	cell growth or viability		CCK-8	72 h		33 µM
COc1ccc([C@@H]2CC(=O)c3c(O)cc(O[C@@H]4O[C@H](CO[C@@H]5O[C@@H](C)[C@H](O)[C@@H](O)[C@H]5O)[C@@H](O)[C@H](O)[C@H]4O)cc3O2)cc1O	A549	cell growth or viability		trypan blue	72 h		92.9 µg/mL
CCCCCCCCC=CCCCCCCCC(=O)OCC1OC(n2ccc(N)nc2=O)C(F)(F)C1O (centres unmarked)	L1210/L5 (mouse)	cell growth		cell counting	72 h		0.0033 ± 0.0019 µM
CC(=O)OC[C@H]1O[C@@H](Oc2ccc(C#[C][Pt+])cc2)[C@H](OC(C)=O)[C@@H](OC(C)=O)[C@@H]1OC(C)=O.O=S(=O)([O-])C(F)(F)F.c1ccc(-c2cccc(-c3ccccn3)n2)nc1	PLC	cell growth or viability			72 h		24.2 µM
CC(C)C1OC(=O)C(NC(=O)c2cccc(O)c2)C(C)OC(=O)C(C(C)C)OC(=O)C(C)(C)C(=O)C(Cc2ccccc2)OC1=O (centres unmarked)	NCM460	cell growth or viability		CCK-8	72 h		> 50 µM
Cc1cc(/C=C/C#N)cc(C)c1Oc1cc(Nc2ccc(C#N)cn2)nc2cnccc12	H69AR (multidrug resistant)				48 h		> 120 µM
O=c1ccn([C@@H]2O[C@H](CSSc3ccccn3)[C@@H](O)[C@H](F)[C@H]2O)c(=O)[nH]1	FM3A	cell growth or viability					17 µM
O=S(=O)([O-])[O-].[Cu+2].c1ccc(-c2nnc(-c3ccc4c(c3)OCO4)[nH]2)nc1	T24	cell growth or viability		MTT	24 h		5.46 µM

For quick reference, copied from above:
SMILES	cell line	effect on	mode	technique	time	notes	IC50
CCC1=C(CC)C2=[N+]3C1=Cc1c(CC)c(CC)c4[n]1[Ir-3]31([C]#[N+]c3ccc(OC)cc3)([C]#[N+]c3ccc(OC)cc3)[n]3c(c(CC)c(CC)c3=CC3=[N+]1C(=C4)C(CC)=C3CC)=C2.F[B-](F)(F)F	HCC827	cell growth or viability		MTT	72 h		50 µM
COc1cccc(-c2ccc(Nc3ccc(CN(C)C)cc3)c(OC)c2F)c1	A-375 (BRAF V600E)	ERK phosphorylation		HTRF			74.7 µM
O=C(O)/C(Cc1ccccc1[N+](=O)[O-])=N\Nc1nc2c(s1)CS(=O)(=O)c1cc(Cl)c(Cl)cc1-2	CRL-2351	cell growth		sulforhodamine B	5 days		> 20 µM
CC/C(=C(\c1ccc(O)cc1)c1ccc(OCCN(C)CCOCCOCCN(C)CCOc2ccc(/C(=C(/CC)c3ccccc3)c3ccc(O)cc3)cc2)cc1)c1ccccc1	MDA-MB-231 (ER-negative)	cell growth			96 h		1.84 µM
N[C@@H](CCC(=O)N[C@@H](CS[Se]Cc1ccc(-c2cc(C(F)(F)F)nn2-c2ccc(S(N)(=O)=O)cc2)cc1)C(=O)NCC(=O)O)C(=O)O	FF2441 human fibroblasts	cell viability		MTS	72 h		36.3 ± 5.6 µM
